# Experimental data gathered from unrelated publications.
# Lines come from different studies, so protocols differ. ± gives the spread as reported.
# PTR2: Peptide transporter PTR2 (PTR2, Saccharomyces cerevisiae, UniProt P32901)
# Chain of UniProt P32901 (whole entry, looked up): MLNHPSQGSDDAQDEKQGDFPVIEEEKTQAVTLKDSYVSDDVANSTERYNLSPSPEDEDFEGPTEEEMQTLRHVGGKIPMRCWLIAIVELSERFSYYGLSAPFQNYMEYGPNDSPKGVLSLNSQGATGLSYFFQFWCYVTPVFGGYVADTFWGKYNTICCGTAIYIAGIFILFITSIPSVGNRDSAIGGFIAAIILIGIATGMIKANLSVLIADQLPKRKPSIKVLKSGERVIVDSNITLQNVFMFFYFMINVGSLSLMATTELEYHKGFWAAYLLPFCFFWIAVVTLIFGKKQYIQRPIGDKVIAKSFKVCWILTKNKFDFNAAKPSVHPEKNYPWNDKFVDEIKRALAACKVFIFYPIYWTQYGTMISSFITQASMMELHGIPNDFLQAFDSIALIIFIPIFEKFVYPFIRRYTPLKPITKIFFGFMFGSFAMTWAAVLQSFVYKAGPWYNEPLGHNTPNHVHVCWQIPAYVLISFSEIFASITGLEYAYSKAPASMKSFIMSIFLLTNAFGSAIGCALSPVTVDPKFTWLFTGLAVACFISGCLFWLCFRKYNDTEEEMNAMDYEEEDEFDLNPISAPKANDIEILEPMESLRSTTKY
# EZH1 in PRC2 complex: Histone-lysine N-methyltransferase EZH1, in PRC2 complex (EZH1, Homo sapiens, UniProt Q92800)
# Chain of UniProt Q92800 (whole entry, looked up): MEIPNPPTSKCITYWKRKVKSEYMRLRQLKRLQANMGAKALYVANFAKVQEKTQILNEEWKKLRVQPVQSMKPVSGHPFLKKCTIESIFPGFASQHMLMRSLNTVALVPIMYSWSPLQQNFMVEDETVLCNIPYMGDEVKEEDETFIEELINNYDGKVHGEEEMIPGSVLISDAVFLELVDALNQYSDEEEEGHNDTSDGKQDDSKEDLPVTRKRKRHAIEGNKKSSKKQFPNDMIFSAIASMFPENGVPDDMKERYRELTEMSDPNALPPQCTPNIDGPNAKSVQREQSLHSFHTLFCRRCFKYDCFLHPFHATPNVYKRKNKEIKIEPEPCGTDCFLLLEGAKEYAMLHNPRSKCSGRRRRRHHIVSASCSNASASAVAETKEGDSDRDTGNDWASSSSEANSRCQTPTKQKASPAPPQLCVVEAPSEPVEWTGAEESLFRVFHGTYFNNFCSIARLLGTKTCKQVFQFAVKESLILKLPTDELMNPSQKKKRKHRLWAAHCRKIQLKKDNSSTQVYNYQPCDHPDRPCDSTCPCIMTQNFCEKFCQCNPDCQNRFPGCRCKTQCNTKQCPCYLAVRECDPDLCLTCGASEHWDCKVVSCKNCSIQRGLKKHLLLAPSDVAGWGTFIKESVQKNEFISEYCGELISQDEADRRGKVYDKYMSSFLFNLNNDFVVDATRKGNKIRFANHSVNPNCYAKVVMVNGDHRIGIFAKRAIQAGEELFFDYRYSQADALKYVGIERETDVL
# USP3 ZnF-UBD domain: Ubiquitin carboxyl-terminal hydrolase 3, ZnF-UBD domain (USP3, Homo sapiens, UniProt Q9Y6I4)
# Chain of UniProt Q9Y6I4 (whole entry, looked up): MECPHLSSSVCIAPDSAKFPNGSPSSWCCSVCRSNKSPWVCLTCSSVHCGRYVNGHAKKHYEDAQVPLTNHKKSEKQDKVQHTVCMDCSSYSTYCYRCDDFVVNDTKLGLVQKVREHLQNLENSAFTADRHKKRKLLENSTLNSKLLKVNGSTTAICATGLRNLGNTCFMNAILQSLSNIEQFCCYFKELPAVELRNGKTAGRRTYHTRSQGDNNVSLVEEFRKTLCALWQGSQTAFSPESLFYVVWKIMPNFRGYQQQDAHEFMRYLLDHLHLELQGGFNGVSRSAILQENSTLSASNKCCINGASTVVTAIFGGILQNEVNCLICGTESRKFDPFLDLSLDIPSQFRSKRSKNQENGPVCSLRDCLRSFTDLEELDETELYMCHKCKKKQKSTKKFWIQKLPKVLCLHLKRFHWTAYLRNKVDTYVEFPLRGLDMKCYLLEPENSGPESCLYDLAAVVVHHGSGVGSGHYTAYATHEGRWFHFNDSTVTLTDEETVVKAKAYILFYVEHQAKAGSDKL
# Ppara F272I: Peroxisome proliferator-activated receptor alpha (Ppara, Mus musculus, UniProt P23204, F272I)
# Chain of UniProt P23204 (whole entry, unmodified, looked up): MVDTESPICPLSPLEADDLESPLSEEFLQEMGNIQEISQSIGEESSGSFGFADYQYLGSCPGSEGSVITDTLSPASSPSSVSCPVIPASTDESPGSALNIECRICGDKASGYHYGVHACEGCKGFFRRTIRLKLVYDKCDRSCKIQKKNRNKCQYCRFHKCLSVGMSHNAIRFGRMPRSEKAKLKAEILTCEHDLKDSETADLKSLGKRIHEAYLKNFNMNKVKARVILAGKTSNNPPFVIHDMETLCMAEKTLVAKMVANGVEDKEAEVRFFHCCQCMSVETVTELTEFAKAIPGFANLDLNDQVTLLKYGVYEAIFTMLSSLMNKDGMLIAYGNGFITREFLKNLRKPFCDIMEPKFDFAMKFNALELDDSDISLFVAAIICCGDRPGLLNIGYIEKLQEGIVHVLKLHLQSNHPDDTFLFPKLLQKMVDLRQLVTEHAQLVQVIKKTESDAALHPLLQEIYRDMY
# APP Aβ aggregates: Amyloid-beta precursor protein, Aβ aggregates (APP, Homo sapiens, UniProt P05067)
# Chain of UniProt P05067 (whole entry, looked up): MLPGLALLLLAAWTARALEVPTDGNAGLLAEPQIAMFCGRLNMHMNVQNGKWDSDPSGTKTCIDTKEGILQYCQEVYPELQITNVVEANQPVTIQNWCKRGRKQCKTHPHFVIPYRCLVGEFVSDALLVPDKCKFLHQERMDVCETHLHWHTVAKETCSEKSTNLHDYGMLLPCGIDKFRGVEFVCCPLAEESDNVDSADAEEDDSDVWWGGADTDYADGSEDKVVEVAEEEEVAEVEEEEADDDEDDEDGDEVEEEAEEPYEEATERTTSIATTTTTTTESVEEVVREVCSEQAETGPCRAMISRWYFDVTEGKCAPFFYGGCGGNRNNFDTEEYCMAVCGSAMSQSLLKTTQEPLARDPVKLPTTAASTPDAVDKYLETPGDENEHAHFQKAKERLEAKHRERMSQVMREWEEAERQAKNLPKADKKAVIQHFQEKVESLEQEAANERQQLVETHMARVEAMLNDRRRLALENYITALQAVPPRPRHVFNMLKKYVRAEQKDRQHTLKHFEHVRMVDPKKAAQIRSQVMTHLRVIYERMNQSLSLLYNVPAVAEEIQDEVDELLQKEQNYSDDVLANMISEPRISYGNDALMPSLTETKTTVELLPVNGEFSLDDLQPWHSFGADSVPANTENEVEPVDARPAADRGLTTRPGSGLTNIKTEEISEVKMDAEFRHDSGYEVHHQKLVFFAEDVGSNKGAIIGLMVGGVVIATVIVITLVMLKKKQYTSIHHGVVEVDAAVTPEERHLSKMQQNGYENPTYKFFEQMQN
# Chain of UniProt P27815 (whole entry, looked up): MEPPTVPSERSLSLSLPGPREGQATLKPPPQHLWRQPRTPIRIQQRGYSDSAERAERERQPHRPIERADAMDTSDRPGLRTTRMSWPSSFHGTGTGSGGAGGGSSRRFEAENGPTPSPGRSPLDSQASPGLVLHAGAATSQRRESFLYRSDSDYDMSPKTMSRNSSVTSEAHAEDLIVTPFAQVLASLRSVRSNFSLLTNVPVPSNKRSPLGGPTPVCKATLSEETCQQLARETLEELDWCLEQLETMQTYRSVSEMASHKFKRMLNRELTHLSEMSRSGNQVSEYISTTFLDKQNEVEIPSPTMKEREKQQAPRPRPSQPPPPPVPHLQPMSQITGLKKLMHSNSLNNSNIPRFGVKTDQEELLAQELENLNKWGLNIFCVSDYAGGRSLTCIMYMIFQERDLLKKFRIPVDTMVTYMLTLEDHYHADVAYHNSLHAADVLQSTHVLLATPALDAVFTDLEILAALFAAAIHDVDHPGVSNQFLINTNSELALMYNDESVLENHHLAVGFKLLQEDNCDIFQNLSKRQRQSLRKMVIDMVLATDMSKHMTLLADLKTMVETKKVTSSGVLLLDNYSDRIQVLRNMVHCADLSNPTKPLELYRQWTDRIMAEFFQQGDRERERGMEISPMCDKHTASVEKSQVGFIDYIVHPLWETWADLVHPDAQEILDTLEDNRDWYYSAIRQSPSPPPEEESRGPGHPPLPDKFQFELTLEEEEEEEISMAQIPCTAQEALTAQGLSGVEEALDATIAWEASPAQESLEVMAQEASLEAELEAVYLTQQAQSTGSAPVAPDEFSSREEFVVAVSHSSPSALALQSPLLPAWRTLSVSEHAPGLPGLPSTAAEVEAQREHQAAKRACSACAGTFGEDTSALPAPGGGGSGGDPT
# Chain of UniProt Q8N884 (whole entry, looked up): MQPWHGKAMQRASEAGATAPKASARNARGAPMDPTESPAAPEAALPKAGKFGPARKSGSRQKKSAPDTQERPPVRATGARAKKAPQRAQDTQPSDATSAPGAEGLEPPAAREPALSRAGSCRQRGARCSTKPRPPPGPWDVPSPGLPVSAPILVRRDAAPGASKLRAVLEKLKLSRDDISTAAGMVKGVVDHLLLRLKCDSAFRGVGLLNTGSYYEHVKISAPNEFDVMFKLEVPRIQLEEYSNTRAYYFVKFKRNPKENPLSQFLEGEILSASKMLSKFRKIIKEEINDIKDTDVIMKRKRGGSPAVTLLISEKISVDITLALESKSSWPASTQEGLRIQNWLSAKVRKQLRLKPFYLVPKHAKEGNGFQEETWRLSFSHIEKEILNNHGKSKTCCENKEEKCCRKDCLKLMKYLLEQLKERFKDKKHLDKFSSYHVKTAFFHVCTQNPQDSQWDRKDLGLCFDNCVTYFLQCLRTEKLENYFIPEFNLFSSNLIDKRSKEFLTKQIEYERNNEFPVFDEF
# Chain of UniProt O60701 (whole entry, unmodified, looked up): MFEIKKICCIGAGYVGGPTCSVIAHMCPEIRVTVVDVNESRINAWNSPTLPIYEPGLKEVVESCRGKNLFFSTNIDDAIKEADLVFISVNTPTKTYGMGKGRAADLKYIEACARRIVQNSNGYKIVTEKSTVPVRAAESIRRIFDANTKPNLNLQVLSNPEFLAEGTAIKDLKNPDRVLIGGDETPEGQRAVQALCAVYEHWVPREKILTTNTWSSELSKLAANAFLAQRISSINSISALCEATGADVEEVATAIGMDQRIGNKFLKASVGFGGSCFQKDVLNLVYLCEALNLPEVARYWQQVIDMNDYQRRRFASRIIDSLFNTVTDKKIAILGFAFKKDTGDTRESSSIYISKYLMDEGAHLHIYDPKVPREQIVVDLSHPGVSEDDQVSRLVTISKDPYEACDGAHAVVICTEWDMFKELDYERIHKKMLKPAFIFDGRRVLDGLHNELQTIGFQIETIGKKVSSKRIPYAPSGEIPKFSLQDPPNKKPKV
Structure (SMILES),target or system,test,system,conditions,how to read,measurement,result
N#CCC(=O)Nc1ccc(C2CCCCC2)cc1,,liver microsome stability,mouse liver microsomes,1 µM,,hepatic clearance,74 mL/min/kg
C[C@H](N)C(=O)N[C@@H](C)P(=O)(O)O,PTR2,"competitive uptake, fluorescence",Saccharomyces cerevisiae expressing PTR2,,,Ki,920 µM
COc1cc(C)[nH]c(=O)c1CN1CCc2c(Cl)cc([C@H](OC)C3COC3)c(Cl)c2C1=O,EZH1 in PRC2 complex,"enzyme activity, inhibitor",,together with: activator peptide,,Ki,0.008 µM
Cc1ccc([C@H]2C[C@@H]2COc2cc(NCc3nnc(C)s3)nc(C)n2)nc1,"3',5'-cyclic-AMP phosphodiesterase 4A, isoform PDE4A1 (PDE4A, Homo sapiens, UniProt P27815)","enzyme activity, inhibitor, IMAP fluorescence polarization",,"isoform PDE4A1, together with: cAMP substrate",,Ki,19.1 µM
Cc1nn(-c2nc3ccccc3[nH]2)c(O)c1C(c1ccccn1)c1c(C)nn(-c2nc3ccccc3[nH]2)c1O,"Cyclic GMP-AMP synthase, catalytic domain; with DNA (CGAS, Homo sapiens, UniProt Q8N884)","cGAS phase separation, inhibitor",,,,EC50,6.74 µM
OC[C@H]1OC(O)[C@H](O)[C@@H](O)[C@@H]1O (stereo partly drawn),"Hexokinase-3 (HK3, Homo sapiens, UniProt P52790)",substrate inhibition,,"together with: ATP 2 mM, sub-saturating",,Ki,3400 ± 100 µM
CCC(=O)O[C@@H](O[P@](=O)(CCCCc1ccccc1)CC(=O)N1C[C@H](C2CCCCC2)C[C@H]1C(=O)O)C(C)C,PTR2,"competitive uptake, fluorescence",Saccharomyces cerevisiae expressing PTR2,,,Ki,> 770 µM
CC[C@H]1OC(=O)C[C@@H](O)[C@H](C)[C@@H](O[C@@H]2O[C@H](C)[C@@H](O[C@H]3C[C@@](C)(O)[C@@H](O)[C@H](C)O3)[C@H](N(C)C)[C@H]2O)[C@@H](CC=O)C[C@@H](C)C(=O)/C=C/C(C)=C/[C@@H]1CO[C@@H]1O[C@H](C)[C@@H](O)[C@@H](OC)[C@H]1OC,"rplD/rplV (Escherichia coli, UniProt P60723+P61175)",ribosome binding,,,,Ki,2.26 ± 0.3 µM
CC[C@H](C)n1cc(C)c2c(C(=O)NCc3c(C)cc(C)[nH]c3=O)cc(-c3ccc(N4CCNCC4)nc3)cc21,EZH1 in PRC2 complex,"enzyme activity, inhibitor",,together with: activator peptide,,Ki,0.03 µM
O=c1ccn([C@@H]2O[C@H](COP(=O)(O)OP(=O)(O)O[C@H]3OC[C@@H](O)[C@H](O)[C@H]3O)[C@@H](O)[C@H]2O)c(=O)[nH]1,"UGDH (Homo sapiens, UniProt O60701, A104L)","inhibitor, steady-state kinetics",,,,Ki,2.3 ± 0.2 µM
Cn1cc(-c2ccc(-c3cncc(Cl)c3N3CCC4(CCNC4=O)CC3)cc2)cn1,COLO 205,"gene expression, microarray, item: SCUBE1 mRNA",,"concentration not given, 6 h",baseline: untreated cells,log2 fold change,-2.55
Oc1ccc(N=Nc2ccc(-c3nc4ccccc4s3)cc2)c(O)c1,"Amyloid-beta precursor protein, Aβ40 fibrils (APP, Homo sapiens, UniProt P05067)","binding to Aβ fibrils, thioflavin T competition",,"Aβ 5 µM, together with: ThT 2 µM",,Ki,0.21 µM
CCc1nc(N)nc(N)c1-c1ccc(Cl)cc1,"SLC22A2 (Homo sapiens, UniProt O15244)",inhibitor,,,,Ki,1.4 µM
O=C(O)Cn1cnc2c(oc3ccccc32)c1=O,USP3 ZnF-UBD domain,,,,,Kd,> 1000 µM
CCCCCCCCCCCCCCCCCC(=O)SCCNC(=O)CCNC(=O)[C@H](O)C(C)(C)COP(=O)(O)OP(=O)(O)OC[C@H]1O[C@@H](n2cnc3c(N)ncnc32)[C@H](O)[C@@H]1OP(=O)(O)O,Ppara F272I,,,,,Ki,0.019 ± 0.002 µM
COc1ccc(C(=O)Nc2ccc(N3C4CCC3CN(c3ccccn3)C4)cn2)cc1,APP Aβ aggregates,"[3H]PiB competition binding, item: amyloid-beta",Alzheimer's disease brain homogenate,together with: [3H]PiB,,Ki,> 1 µM
CCCCCCCCCCCCCCCC(=O)O,Ppara F272I,,,,,Ki,0.019 ± 0.002 µM
O=C(NCCc1cccnc1)c1ccc(C2CCCCC2)cc1,,hepatocyte stability,cryopreserved mouse hepatocytes,1 µM,,hepatic clearance,74 mL/min/kg
O=C(O)CNC(=O)c1ccc(C(=O)N2CCC(c3ccc(Cl)cc3)CC2)cn1,USP3 ZnF-UBD domain,,,,,Kd,344 µM
O=c1c(O)c(-c2ccc(O)c(O)c2)oc2cc(O)cc(O)c12,"PSMB5, chymotrypsin-like activity (Oryctolagus cuniculus, UniProt G1T4Q9)","chymotrypsin-like proteasome activity, inhibitor",rabbit muscle proteasome,,,Ki,< 10 µM
COc1ccc(C(=O)Nc2ccc(N3C4CCC3CN(c3ccccn3)C4)cc2)cc1,APP Aβ aggregates,"[3H]PiB competition binding, item: amyloid-beta",Alzheimer's disease brain homogenate,together with: [3H]PiB,,Ki,> 1 µM
CCCCCCCCCCCCCCCC(=O)SCCNC(=O)CCNC(=O)[C@H](O)C(C)(C)COP(=O)(O)OP(=O)(O)OC[C@H]1O[C@@H](n2cnc3c(N)ncnc32)[C@H](O)[C@@H]1OP(=O)(O)O,Ppara F272I,,,,,Ki,0.018 ± 0.002 µM
F[C@@H]1CCN(c2ccc(-c3ccc4sc(-c5cccnc5)cc4n3)cn2)C1,APP Aβ aggregates,binding,Alzheimer's disease brain homogenate,together with: [3H]PiB,,Ki,9.6 ± 0.8 µM
COc1ccc(C(=O)Nc2ccc(N3CCN(c4ccccn4)CC3)cn2)cc1,APP Aβ aggregates,"[3H]PiB competition binding, item: amyloid-beta",Alzheimer's disease brain homogenate,together with: [3H]PiB,,Ki,0.0431 ± 0.0038 µM

# For quick reference, copied from above:
Structure (SMILES),target or system,test,system,conditions,how to read,measurement,result
CCC(=O)O[C@@H](O[P@](=O)(CCCCc1ccccc1)CC(=O)N1C[C@H](C2CCCCC2)C[C@H]1C(=O)O)C(C)C,PTR2,"competitive uptake, fluorescence",Saccharomyces cerevisiae expressing PTR2,,,Ki,> 770 µM
Cc1ccc([C@H]2C[C@@H]2COc2cc(NCc3nnc(C)s3)nc(C)n2)nc1,"3',5'-cyclic-AMP phosphodiesterase 4A, isoform PDE4A1 (PDE4A, Homo sapiens, UniProt P27815)","enzyme activity, inhibitor, IMAP fluorescence polarization",,"isoform PDE4A1, together with: cAMP substrate",,Ki,19.1 µM
